# Experimental data gathered from unrelated publications.
# Lines come from different studies, so protocols differ. Several values in a cell are separate wells, animals, samples, runs or records. Numbers after ± are the reported error.
Compound,test,system,setting,how to read,measurement,value
Cn1nc2c(=O)n(C3CC3)ncc2c1[C@](O)(c1cnc(C(F)(F)F)c(Cl)c1)C(F)(F)F,,"rat Sprague-Dawley male, plasma","intravenous, 1 mg/kg",,CL,2.76 ± 0.0642 mL/min/kg
CCOC(=O)[C@@]12C[C@@H]1[C@@H](n1ccc3c(NC)nc(C#Cc4ccc(Cl)s4)nc31)[C@H](O)[C@@H]2O,,"Sprague-Dawley rat, male, plasma","oral, 1 mg/kg",,AUC extrapolated share,20.5%
O=C(O)CCC(=O)O.[2H]C([2H])([2H])Oc1cc(C)c2[nH]ccc2c1CN1CC[C@@H](C2CC2)C[C@H]1c1ccc(C(=O)O)cc1,,healthy Chinese subjects,"50 mg, single ascending dose",,TEAE decreased fibrinogen,0%
CCn1ncc2c1-c1cnc(N)c(c1)O[C@H](C)c1cc(F)ccc1-c1nn(C)nc1C2,,"athymic nude mouse, female, sample A PDX, plasma","po, 5 mg/kg BID, 12 h, 5 days dosing",,"Cmin, unbound",100 ± 20 nM
CCCCC1=NC2(CCCC2)C(=O)N1Cc1ccc(-c2ccccc2S(=O)(=O)Nc2noc(C)c2C)c(COCC)c1,,"healthy adult volunteers, plasma","oral, 50 mg, single dose, fed, crushed tablet",,AUC(0-inf),10500 ng·h/mL
O=C(NC[C@H]1CN(c2ccc(N3CCOCC3=O)cc2)C(=O)O1)c1ccc(Cl)s1,"Phoenix NLME, model B","human, atrial fibrillation patients, plasma",oral,,typical population clearance,113 mL/min
O=C(COc1ccc(Cl)cc1)NC12CC(c3nnc([C@H]4C[C@@H](OC(F)(F)F)C4)o3)(C1)C2,,human both sexes,"oral, 200 mg single dose",,postural dizziness participants,16.7%
COc1cc(C=CC(=O)O)ccc1O[C@@H]1O[C@H](C(=O)O)[C@@H](O)[C@H](O)[C@H]1O,,human plasma,mean,,plasma concentration,11100 nM
COc1cccc(OC)c1-c1cc(C(=O)NC2(C(=O)O)C3CC4CC(C3)CC2C4)nn1-c1ccc(C(=O)N(C)CCCN(C)CCCN(C)C(=O)CN2CCN(CC(=O)[O-])CCN(CC(=O)[O-])CCN(CC(=O)[O-])CC2)cc1C(C)C.[177Lu+3] (centres unmarked),,"mouse, HT-29 xenograft, HT-29 tumour",72 h post injection,,tissue uptake,6 %ID/g
CCN1/C(=C/C(C)=O)Sc2ccc(F)cc21,,cynomolgus monkey,"oral, 100 mg/kg, 4 h post-dose",reference: pre-dose,mean blood pressure change,102 ± 2.8%
CCC[C@@H]1C[C@@H](C(=O)N[C@@H]([C@H]2O[C@H](SC)[C@H](O)[C@@H](O)[C@H]2O)[C@@H](C)O)N(C)C1,starch gel membrane permeability,Gram-negative envelope surrogate,"200 µM, 90 min, pH 7.4",,amount permeated,3.99 nmol
Cc1c(-c2ccc(N3CCc4cccc(C(=O)Nc5nc6ccccc6s5)c4C3)nc2C(=O)O)cnn1CC12CC3(C)CC(C)(C1)CC(OCCNCC[C@H](O)CO)(C3)C2,,"beagle dog, anaesthetised","intravenous infusion, 0.1 mg/kg/min, 15 min",reference: baseline,mean arterial pressure change,1 mmHg
NC[C@@]1(CC(=O)O)[C@@H]2CC[C@H]3C[C@@H]2[C@@H]1C3,,"human, normal renal function, plasma","oral, 20 mg single dose, geometric mean",,MRT(0-inf),5.37 h
C=CCN1CC(=O)N2[C@@H](Cc3ccc(O)cc3F)C(=O)N(Cc3cccc(N4CC(N5CCN(CC)CC5)C4)n3)C[C@@H]2N1C(=O)NCc1ccccc1,,advanced solid tumour patients,"oral, 30 mg twice daily, any grade, dose-escalation",,treatment-related vomiting,0%
C[C@H](NC(=O)/C(C#N)=C/c1cccc(Br)n1)c1ccccc1,LC-MS/MS,"patients, plasma","oral, 4 mg/kg, cycle 1 day 8",,AUC(all),64.2 ng·h/mL
O=C(O)[C@H]1O[C@@H](Oc2ccc(/C=C/c3cc(O)cc(O)c3)cc2)[C@H](O)[C@@H](O)[C@@H]1O,,"human, cerebrospinal fluid",,,samples above LOQ,0%
CN[C@H](CC(C)C)C(=O)N[C@H]1C(=O)N[C@@H](CC(N)=O)C(=O)N[C@H]2C(=O)N[C@H]3C(=O)N[C@H](C(=O)N[C@H](C(=O)O)c4cc(O)cc(O)c4-c4cc3ccc4O)[C@H](O)c3ccc(c(Cl)c3)Oc3cc2cc(c3O[C@@H]2O[C@H](CO)[C@@H](O)[C@H](O)[C@H]2O[C@H]2C[C@](C)(N)[C@H](O)[C@H](C)O2)Oc2ccc(cc2Cl)[C@H]1O,,"C57BL/6N mouse H1, faeces","po, 0.5 mL, 20 mg/mL solution",,elimination rate constant,0.16 h⁻¹
O=c1cc(-c2ccccc2)oc2ccccc12,,human plasma,"mean, both sexes",,plasma concentration,1650 nM
C[C@@H]1COCCN1c1cc(C2([S@](C)(=N)=O)CC2)nc(-c2cc[nH]c3nccc2-3)n1,,Japanese advanced solid tumour patients,"oral, 160 mg twice daily, CTCAE grade ≥3",,Diarrhea incidence,0%
O=C(OC(C(F)(F)F)C(F)(F)F)N1CCN(Cc2cccc(Oc3ccccc3)c2)CC1,PET blocking study,"rhesus monkey, brain THA","0.01 mg/kg, compound pretreatment, added: [18F]T-401 tracer",,k2,0.04 min⁻¹
CCc1c(-c2ccccc2)c(-c2ccccc2)nn1-c1ccccc1-c1cccc(OCC(=O)O)c1,,Sprague-Dawley rat,"oral, dose not given",,AUC extrapolated observed,0.214% and 0.114% and 0.0943%
O=C(O)[C@H]1O[C@@H](Oc2cc(O)cc(/C=C/c3ccc(O)cc3)c2)[C@H](O)[C@@H](O)[C@@H]1O,,"human, plasma",,,samples above LOQ,100%
C[Si]1(C)O[Si](C)(C)O[Si](C)(C)O[Si](C)(C)O[Si](C)(C)O1,regression,,25 °C,,log KAW,3.16
Cc1ccc(Sc2ccccc2N2CCNCC2)c(C)c1,refers to: postural dizziness,healthy adult men,"oral, 10 mg daily, 12 days",,participants with TEAE,0%
Cc1cc(NC2CCN(C(=O)OC3CCN(C(=O)/C=C/CN(C)C)C3)CC2)n2ncc(C(C)C)c2n1 (centres unmarked),"Phase I dose escalation CTCAE v4.0, refers to: platelet count decreased",patients with advanced solid tumours,"dose not given, TIW dosing any grade",,patients with adverse event,0%
COc1cc(C(=O)O)ccc1O,,human plasma,"median, both sexes",,plasma concentration,80.9 nM
C[C@@H](NC(=O)N1C(=O)[C@H](Cc2ccnc(N)c2)[C@H]1C(=O)O)C1CCCCC1,UPLC-MS/MS,"healthy adult Chinese volunteers, plasma","continuous intravenous infusion, 0.3 mg/kg/h, day 6 of 5-day infusion, mean",,t1/2,1.3 h
OC[C@H]1O[C@@H](c2ccc(F)c(Cc3cc4ccccc4s3)c2)[C@H](O)[C@@H](O)[C@@H]1O,,"Japanese patients, type 1 diabetes","oral, 100 mg/day, onset day 6",reference: patients,hypoglycaemia-related adverse event,3%
[H]/N=C(/N)N[C@H]1[C@H](O)[C@@H](O)[C@H](O[C@@H]2O[C@@H](C)[C@](O)(C=O)[C@H]2O[C@@H]2O[C@@H](CO)[C@H](O)[C@@H](O)[C@@H]2NC)[C@@H](N/C(N)=N\[H])[C@@H]1O,starch gel membrane permeability,Gram-negative envelope surrogate,"200 µM, 60 min, pH 7.4",,amount permeated,1.72 nmol
CN1CCC[C@H](CN2c3ccccc3Sc3ccccc32)C1.Cl,,"Wistar rats, female, lymph node","oral, 16 mg/kg",,Tmax,8 h
O=c1c(O)c(-c2ccc(O)cc2)oc2cc(O)cc(O)c12,,human plasma,"median, both sexes",,plasma concentration,97600 nM
CCc1nc(C(N)=O)c(Nc2ccc(N3CCC(N4CCN(C)CC4)CC3)c(OC)c2)nc1NC1CCOCC1,,"Japanese patients, plasma","oral, 120 mg, cycle 1 day 28, multiple doses, median",reference: single dose,accumulation ratio (AUC),7.97
COc1cc(C(=O)NC2CCN(C)CC2)c(F)cc1Nc1ncc(C(F)(F)F)c(Oc2cccc3c2C(=O)N(C)C3)n1,,"human patients, plasma","oral, 25 mg single dose, geometric mean",,dose-normalised Cmax,8.01 nmol/L per mg
CO[C@H]1C[C@@H]2CC[C@@H](C)[C@@](O)(O2)C(=O)C(=O)N2CCCC[C@H]2C(=O)O[C@H]([C@H](C)C[C@@H]2CC[C@@H](O)[C@H](OC)C2)CC(=O)[C@H](C)/C=C(\C)[C@@H](O)[C@@H](OC)C(=O)[C@H](C)C[C@H](C)/C=C/C=C/C=C/1C,,healthy adult horses,"intravenous, 0.06 mg/kg, 0 h",,heart rate,37 ± 5.2 beats/min
Cc1c(Cl)c(C)[n+]([O-])c(Cl)c1-c1noc(-c2cc(O)c(O)c([N+](=O)[O-])c2)n1,,healthy Chinese subjects,"oral, 100 mg",,TEAE leading to discontinuation,0%
CCc1cc(C(=O)NC)c2nccc(N3CCc4c(cc(Cn5ccnc5)cc4-c4cn(C)nc4C(F)(F)F)C3=O)c2c1,,"Sprague Dawley rats, male, plasma","oral, 100 mg/kg twice daily, day 1",,AUC extrapolated,0.2%
COc1cc2c3c(n(CCCN4CCOCC4)c(=O)c2cc1OC)-c1cc2c(cc1C3=O)OCO2,,"Fischer 344 rat, plasma","intravenous bolus, 12 mg/m^2",,clearance,30 to 50 L/h/m²
O=C1CC[C@H](N2Cc3cc(N4CCN(CC5CCN(c6ccc([C@@H]7c8ccc(O)cc8CC[C@@H]7c7ccccc7)cc6)CC5)CC4)ccc3C2=O)C(=O)N1,radiolabelled mass balance,"Sprague-Dawley rat, male, bile duct-cannulated, bile","oral, 20 mg/kg, up to 72 h",,dose excreted,18.3%
CO[C@H]1/C=C/O[C@@]2(C)Oc3c(C)c(O)c4c(O)c(c(/C=N/N5CCN(C)CC5)c(O)c4c3C2=O)NC(=O)/C(C)=C\C=C\[C@H](C)[C@H](O)[C@@H](C)[C@@H](O)[C@@H](C)[C@H](OC(C)=O)[C@@H]1C,starch gel membrane permeability,Gram-negative envelope surrogate,"200 µM, 45 min, pH 7.4",,amount permeated,1.68 nmol
C1=C/COCc2cc(ccc2OCCN2CCCC2)Nc2nccc(n2)-c2cccc(c2)COC/1,,"rat Sprague-Dawley male, plasma","oral, added: voriconazole",reference: without voriconazole,Tmax decrease,19%
O=c1c(O)c(-c2ccc(O)c(OS(=O)(=O)O)c2)oc2cc(O)cc(O)c12,,human plasma,mean,,plasma concentration,970 nM
CN(C(=O)n1cnc(-c2cccnc2)c1)C1CCCCC1,,"Wistar rat, cerebellum","oral, 10 mg/kg/day of BIA 10-2474, 48 h, repeated 5 days",,concentration,5.8 ± 0.1 ng/g
CC(C(=O)NCC(=O)NCC(CNC(=O)CNC(=O)C(C)N1CCN(CC(=O)[O-])CCN(CC(=O)[O-])CCN(CC(=O)[O-])CC1)(CNC(=O)CNC(=O)C(C)N1CCN(CC(=O)[O-])CCN(CC(=O)[O-])CCN(CC(=O)[O-])CC1)CNC(=O)CNC(=O)C(C)N1CCN(CC(=O)[O-])CCN(CC(=O)[O-])CCN(CC(=O)[O-])CC1)N1CCN(CC(=O)[O-])CCN(CC(=O)[O-])CCN(CC(=O)[O-])CC1.[Gd+3].[Gd+3].[Gd+3].[Gd+3] (centres unmarked),ICP-MS,"female cynomolgus monkey, plasma","IV bolus, dose not given, 24 h, added: co-injected lanthanide agents",,plasma Gd concentration,< 0.1 µmol Gd/L
C[C@H]1CN(C(=O)CC#N)[C@]12CCN(c1ncnc3[nH]ccc13)C2,,human,"oral, dose not given, all compound groups",,participants with dry skin,3.1%

# Excerpt of the above:
Compound,test,system,setting,how to read,measurement,value
Cn1nc2c(=O)n(C3CC3)ncc2c1[C@](O)(c1cnc(C(F)(F)F)c(Cl)c1)C(F)(F)F,,"rat Sprague-Dawley male, plasma","intravenous, 1 mg/kg",,CL,2.76 ± 0.0642 mL/min/kg
COc1cc(C(=O)O)ccc1O,,human plasma,"median, both sexes",,plasma concentration,80.9 nM
O=c1cc(-c2ccccc2)oc2ccccc12,,human plasma,"mean, both sexes",,plasma concentration,1650 nM
Cc1cc(NC2CCN(C(=O)OC3CCN(C(=O)/C=C/CN(C)C)C3)CC2)n2ncc(C(C)C)c2n1 (centres unmarked),"Phase I dose escalation CTCAE v4.0, refers to: platelet count decreased",patients with advanced solid tumours,"dose not given, TIW dosing any grade",,patients with adverse event,0%
O=C(COc1ccc(Cl)cc1)NC12CC(c3nnc([C@H]4C[C@@H](OC(F)(F)F)C4)o3)(C1)C2,,human both sexes,"oral, 200 mg single dose",,postural dizziness participants,16.7%
Cc1ccc(Sc2ccccc2N2CCNCC2)c(C)c1,refers to: postural dizziness,healthy adult men,"oral, 10 mg daily, 12 days",,participants with TEAE,0%
C1=C/COCc2cc(ccc2OCCN2CCCC2)Nc2nccc(n2)-c2cccc(c2)COC/1,,"rat Sprague-Dawley male, plasma","oral, added: voriconazole",reference: without voriconazole,Tmax decrease,19%
